Measured values collected from several papers.
Numbers after ± are the reported error. Converted amounts (≈) assume the structure as drawn.

`CCC1c2cc(OC)c(O)cc2C(c2ccc(O)c(OC)c2)C1C` (stereo not shown) gave an antifeedant index of 23.5% (Spodoptera frugiperda; larvae; 250 µg/mL; reference: untreated control).
For `CC[C@H](C)[C@H](NC(=O)[C@H](CCCCN)NC(=O)[C@H](CCCCN)NC(=O)[C@H](CC(C)C)NC(=O)[C@H](CCCCN)NC(=O)[C@H](CCC(=O)O)NC(=O)[C@H](CCCCN)NC(=O)[C@@H](NC(=O)[C@H](CCCCN)NC(=O)[C@H](CC(N)=O)NC(=O)[C@H](CCCNC(=N)N)NC(=O)[C@H](Cc1ccccc1)NC(=O)[C@H](CCCCN)NC(=O)[C@H](CCCNC(=N)N)NC(=O)[C@H](CC(C)C)NC(=O)[C@H](CCCNC(=N)N)NC(=O)[C@H](CCCCN)NC(=O)[C@H](CCCNC(=N)N)NC(=O)[C@H](CC(C)C)NC(=O)[C@@H](N)CCCNC(=N)N)[C@@H](C)CC)C(=O)NCC(=O)N[C@@H](CCC(N)=O)C(=O)N[C@@H](CCCCN)C(=O)N[C@H](C(=O)N[C@@H](CCC(N)=O)C(=O)NCC(=O)N[C@@H](Cc1ccccc1)C(=O)N[C@H](C(=O)N1CCC[C@H]1C(=O)N[C@@H](CCCCN)C(=O)N[C@@H](CC(C)C)C(=O)N[C@@H](CCC(N)=O)C(=O)N1CCC[C@H]1C(=O)N[C@@H](CO)C(=O)N[C@@H](CCCCN)C(=O)N[C@@H](CCC(N)=O)C(=O)N[C@@H](CO)C(=O)O)C(C)C)[C@@H](C)CC`, the lethal concentration was 2.17 µM (Staphylococcus warneri; inhibition zone; ATCC 1.2824; LB agar, overnight).
With `CCCCCCCCCC(=O)OCC1OC(n2cc(C)c(=O)[nH]c2=O)CC1N(C)C` (stereo not shown) the EC50 was greater than 0.23 µM (respiratory syncytial virus; viral replication; HeLa).
`C=Cc1cc(OC)c2c(c1)c(=O)oc1c2cc(OC)c2c(O)ccc([C@@H]3O[C@H](C)[C@H](O)[C@@](C)(O)[C@H]3O)c21` gave a biofilm eradication of 55% (Staphylococcus aureus; crystal violet; MRSA USA300; 0.5 × MIC, 24 h).
The lethal concentration of `CC[C@H](C)[C@H](NC(=O)[C@H](CCCCN)NC(=O)[C@H](CCCCN)NC(=O)[C@H](CC(C)C)NC(=O)[C@H](CCCCN)NC(=O)[C@H](CCC(=O)O)NC(=O)[C@H](CCCCN)NC(=O)[C@@H](NC(=O)[C@H](CCCCN)NC(=O)[C@H](CC(N)=O)NC(=O)[C@H](CCCNC(=N)N)NC(=O)[C@H](Cc1ccccc1)NC(=O)[C@H](CCCCN)NC(=O)[C@H](CCCNC(=N)N)NC(=O)[C@H](CC(C)C)NC(=O)[C@H](CCCNC(=N)N)NC(=O)[C@H](CCCCN)NC(=O)[C@H](CCCNC(=N)N)NC(=O)[C@@H](N)CC(C)C)[C@@H](C)CC)C(=O)NCC(=O)N[C@@H](CCC(N)=O)C(=O)N[C@@H](CCCCN)C(=O)N[C@H](C(=O)N[C@@H](CCC(N)=O)C(=O)NCC(=O)N[C@@H](Cc1ccccc1)C(=O)N[C@H](C(=O)N1CCC[C@H]1C(=O)N[C@@H](CCCCN)C(=O)N[C@@H](CC(C)C)C(=O)O)C(C)C)[C@@H](C)CC` is reported as 1.44 µM (Staphylococcus; inhibition zone; methicillin-resistant coagulase-negative P1369).
`CCCCCCCCCCCCCC(=O)N[C@H](CCN)C(=O)N[C@H](C(=O)N[C@@H](CCN)C(=O)N[C@@H](CC(C)C)C(=O)N[C@@H](CCN)C(=O)N[C@H](Cc1ccccc1)C(=O)N[C@@H](CC(C)C)C(=O)N[C@@H](CCN)C(=O)N[C@H](Cc1ccc(O)cc1)C(=O)N[C@H](C(=O)N[C@@H](CC(=O)O)C(=O)O)C(C)C)[C@@H](C)O` — result for “MIC fold change with serum”: 8 fold (ESKAPE pathogens; concentration not given; reference: MIC with serum over without).
For `CC(C)C[C@@H]1NC(=O)[C@H](CCCCN)NC(=O)[C@H](C(C)C)NC(=O)[C@@H]2CCCN2C(=O)[C@@H](Cc2ccc(O)cc2)NC(=O)[C@H](CC(C)C)NC(=O)[C@H](CCCCN)NC(=O)[C@H](C(C)C)NC(=O)[C@@H]2CCCN2C(=O)[C@@H](Cc2ccc(O)cc2)NC1=O`, “MIC geometric mean” read 39 mg/L (≈ 32.5 µM) (Gram-negative bacteria; 24 h, 7 strains).
With `CC[C@H](C)[C@H](NC(=O)[C@H](CCCCN)NC(=O)[C@H](CCCCN)NC(=O)[C@H](CC(C)C)NC(=O)[C@H](CCCCN)NC(=O)[C@H](CCC(=O)O)NC(=O)[C@H](CCCCN)NC(=O)[C@@H](NC(=O)[C@H](CCCCN)NC(=O)[C@H](CC(N)=O)NC(=O)[C@H](CCCNC(=N)N)NC(=O)[C@H](Cc1ccccc1)NC(=O)[C@H](CCCCN)NC(=O)[C@H](CCCNC(=N)N)NC(=O)[C@H](CC(C)C)NC(=O)[C@H](CCCNC(=N)N)NC(=O)[C@H](CCCCN)NC(=O)[C@H](CCCNC(=N)N)NC(=O)[C@H](CC(C)C)NC(=O)[C@@H](N)CC(C)C)[C@@H](C)CC)C(=O)NCC(=O)N[C@@H](CCC(N)=O)C(=O)N[C@@H](CCCCN)C(=O)N[C@H](C(=O)N[C@@H](CCC(N)=O)C(=O)NCC(=O)N[C@@H](Cc1ccccc1)C(=O)N[C@H](C(=O)N1CCC[C@H]1C(=O)N[C@@H](CCCCN)C(=O)N[C@@H](CC(C)C)C(=O)N[C@H](C(=O)N1CCC[C@H]1C(=O)N[C@@H](CCCNC(=N)N)C(=O)N[C@H](C(=O)N[C@@H](CCC(=O)O)C(=O)N[C@@H](CO)C(=O)O)[C@@H](C)O)C(C)C)C(C)C)[C@@H](C)CC` the lethal concentration was 1.48 µM (Staphylococcus; inhibition zone; methicillin-resistant coagulase-negative P1369).
With `CC(=O)c1c(O)c(C)c(O)c2c1OC1=CC(=O)/C3=C(/C)N[C@H](C(=O)O)CC1=CC=C(O)C=C[C@@]2(C)C3=O` the MFC/MIC ratio was 32 (Candida tropicalis).
The resistance index of `COC(=O)C1=CO[C@@H](C)[C@@H]2Cn3ccc4c5ccccc5nc-4c3C[C@H]12` is reported as less than 1.4 (Plasmodium falciparum; parasite growth, [3H]-hypoxanthine incorporation; FCR3 drug-resistant; reference: FCR3 over 3D7).
The worm count of `CC(=O)O[C@@H]1C[C@@H](C)O[C@H]2O[C@@H]3C[C@@H]4CC[C@@H]5[C@H](CC[C@]6(C)[C@@H](C7=CC(=O)OC7)CC[C@]56O)[C@@]4(C)C[C@H]3O[C@]21O` is reported as 5.7 ± 2.5 (Schistosoma mansoni; mouse chronic infection, liver; oral, 10 mg/kg single, dead worms).
For `CC[C@H](C)[C@H](NC(=O)CN)C(=O)NCC(=O)N[C@H](C(=O)N[C@H](C(=O)N[C@@H](CC(C)C)C(=O)N[C@@H](CCCNC(=N)N)C(=O)NCC(=O)N[C@@H](Cc1c[nH]c2ccccc12)C(=O)N[C@@H](CC(C)C)C(=O)N[C@@H](CCCCN)C(=O)NCC(=O)N[C@H](C(=O)N[C@@H](CCSC)C(=O)N[C@H](C(=O)N1CCC[C@H]1C(=O)N[C@H](C(=O)N[C@H](C(=O)NCC(=O)N[C@@H](CC(C)C)C(=O)N[C@@H](CCCCN)C(=O)N[C@@H](Cc1c[nH]cn1)C(=O)N[C@@H](CO)C(=O)N[C@@H](CC(C)C)C(=O)O)[C@@H](C)CC)C(C)C)[C@@H](C)O)C(C)C)C(C)C)[C@@H](C)O`, antibacterial activity read “active” (Gram-negative bacteria; MIC; concentration not given).
`CC1(C)CC[C@]2(CO)CC[C@]3(C)C(=CC[C@@H]4[C@@]5(C)CCCNC(C)(C)[C@@H]5CC[C@]43C)[C@@H]2C1` has a selectivity index of less than 3 (Human cytomegalovirus; HFF, AD169; reference: CC50 over EC50).
`CC[C@H](C)[C@H](NC(=O)CNC(=O)[C@H](CCCCN)NC(=O)[C@H](CC(C)C)NC(=O)[C@H](CC(C)C)NC(=O)[C@H](CCCCN)NC(=O)[C@H](CCC(=O)O)NC(=O)[C@@H](NC(=O)[C@@H](NC(=O)CN)[C@@H](C)CC)[C@@H](C)CC)C(=O)NCC(=O)N[C@@H](CCCCN)C(=O)N[C@H](C(=O)N[C@H](C(=O)N[C@@H](CO)C(=O)NCC(=O)N[C@H](C(=O)N[C@@H](CC(C)C)C(=O)N[C@@H](CCCCN)C(=O)N[C@@H](C)C(=O)N[C@H](C(=O)N[C@@H](C)C(=O)NCC(=O)N[C@@H](C)C(=O)N[C@@H](CCC(N)=O)C(=O)N[C@@H](CO)C(=O)NCC(=O)NCC(=O)N[C@@H](CO)C(=O)N[C@@H](CCC(N)=O)C(=O)N[C@H](C(=O)N[C@@H](CCCCN)C(=O)N[C@@H](C)C(=O)N[C@@H](CO)C(=O)N[C@@H](CCC(N)=O)C(=O)N[C@@H](CCCCN)C(=O)N[C@H](C(=O)N[C@@H](C)C(=O)N[C@@H](CO)C(=O)O)[C@@H](C)CC)[C@@H](C)CC)[C@@H](C)O)C(C)C)C(C)C)C(C)C` — result for antibacterial activity: “active” (Gram-negative bacteria; MIC; concentration not given).
`C=CCc1ccc(OCC=C(C)C)c(OC)c1` has an antifeedant index of 46.2% (Spodoptera frugiperda; larvae; 250 µg/mL; reference: untreated control).
`CC[C@@H](C)[C@@H](NC(=O)[C@@H](C)NC(=O)[C@@H](CCCCN)NC(=O)[C@@H](CC(C)C)NC(=O)[C@@H](C)NC(=O)[C@H](NC(=O)[C@@H](Cc1c[nH]cn1)NC(=O)[C@@H](CC(C)C)NC(=O)[C@H](NC(=O)[C@H](NC(=O)[C@@H](CCCCN)NC(=O)[C@@H](CCCCN)NC(=O)[C@@H](C)NC(=O)[C@@H](CO)NC(=O)[C@@H](CCCCN)NC(=O)[C@@H](Cc1ccccc1)NC(=O)[C@H](NC(=O)[C@@H](CCCCN)NC(=O)[C@@H](CC(C)C)NC(=O)[C@@H](Cc1ccccc1)NC(=O)[C@@H](CO)NC(=O)[C@@H](CCCCN)NC(=O)[C@@H](Cc1c[nH]c2ccccc12)NC(=O)[C@@H](CCCCN)NC(C)=O)[C@H](C)O)[C@H](C)O)C(C)C)[C@H](C)O)C(=O)N[C@H](CO)C(=O)N[C@H](CO)C(N)=O` has an MIC90 of 12.5 mg/L (≈ 4.18 µM) (Absidia corymbifera; clinical isolate; 48 h, 30 °C).
Under antibacterial activity, `CC[C@H](C)[C@H](NC(=O)[C@@H]1CC(=O)N[C@@H](CO)C(=O)N[C@@H](CC(C)C)C(=O)NCC(=O)N[C@@H](CO)C(=O)N[C@@H](CO)C(=O)N2CCC[C@H]2C(=O)N[C@@H](Cc2ccc(O)cc2)C(=O)N[C@@H](CC(N)=O)C(=O)N1)C(=O)N[C@@H](CC(C)C)C(=O)NCC(=O)N[C@@H](Cc1ccc(O)cc1)C(=O)N1CCC[C@H]1C(=O)N[C@@H](C)C(=O)N[C@@H](CC(C)C)C(=O)N[C@H](C(=O)N[C@H](C(=O)N[C@H](C(=O)N[C@@H](Cc1ccc(O)cc1)C(=O)N1CCC[C@H]1C(=O)O)[C@@H](C)CC)C(C)C)[C@@H](C)CC` is recorded as “inactive” (Gram-negative bacteria; concentration not given).
`C/C=C/c1ccc(OC(C)=O)c(OC)c1` gave an antifeedant index of 15.6% (Spodoptera frugiperda; larvae; 25 µg/mL; reference: untreated control).
For `CC(C)C[C@@H]1NC(=O)[C@H](CCCCN)NC(=O)[C@H](C(C)C)NC(=O)[C@@H]2CCCN2C(=O)[C@@H](Cc2ccc(O)cc2)NC(=O)[C@H](CC(C)C)NC(=O)[C@H](CCCCN)NC(=O)[C@H](C(C)C)NC(=O)[C@H](CCCCN)NC(=O)[C@H](CC(C)C)NC(=O)[C@H](CCCCN)NC(=O)[C@@H]2CCCN2C(=O)[C@@H](Cc2ccc(O)cc2)NC(=O)[C@H](C(C)C)NC(=O)[C@H](CCCCN)NC1=O`, “MIC geometric mean” read 19.5 mg/L (≈ 10.8 µM) (Gram-negative bacteria; 24 h, 7 strains).

Excerpt of the above:
`C=CCc1ccc(OCC=C(C)C)c(OC)c1` has an antifeedant index of 46.2% (Spodoptera frugiperda; larvae; 250 µg/mL; reference: untreated control).
With `CC(=O)c1c(O)c(C)c(O)c2c1OC1=CC(=O)/C3=C(/C)N[C@H](C(=O)O)CC1=CC=C(O)C=C[C@@]2(C)C3=O` the MFC/MIC ratio was 32 (Candida tropicalis).
For `CC(C)C[C@@H]1NC(=O)[C@H](CCCCN)NC(=O)[C@H](C(C)C)NC(=O)[C@@H]2CCCN2C(=O)[C@@H](Cc2ccc(O)cc2)NC(=O)[C@H](CC(C)C)NC(=O)[C@H](CCCCN)NC(=O)[C@H](C(C)C)NC(=O)[C@@H]2CCCN2C(=O)[C@@H](Cc2ccc(O)cc2)NC1=O`, “MIC geometric mean” read 39 mg/L (≈ 32.5 µM) (Gram-negative bacteria; 24 h, 7 strains).
